Published values of several laboratories.
Each numbered part is a random draw from the data of one study; scales do not carry over between parts. Substitutions count along the parent as printed.

Set 1 — technique: RNA Bind-n-Seq; form: RNA; matrix: in vitro; concentration: 365 nM; baseline: no-protein control; direction: higher = stronger binding; measurement: RBNS enrichment (R)
Target: RNA binding protein fox-1 homolog 2, RRM domain, GST-SBP tag (RBFOX2, Homo sapiens, UniProt O43251-10, residues 100-194)
Setting: natural RNA segment, single round, ends assumed
Shared flanks, not repeated: GGGAGUUCUACAGUCCGACGAUC … UGGAAUUCUCGGGUGCCAA
Target sequence (chain): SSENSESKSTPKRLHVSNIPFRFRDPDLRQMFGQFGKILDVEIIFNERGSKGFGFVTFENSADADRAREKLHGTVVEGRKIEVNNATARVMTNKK
AUGUUCCUCAGUCGCCCAGUAUGUGAAAGGAGAUAUGAGAGGAGACAAAUGAGUUGAUGGUCUAAAUUAUAAGAUUUGUGUCACAUUAUCUUGAUGCCAGUUUGCCAAAU: 1.62
AUAAAGUAUGACCCACAUUACUUUUUAUGGGUGAAAAUAAGACAAAAAUAAUAGUUUUAGUGAGGAUGGUGCUGAGUAAACAUAAAAACUGAUUUGCUCUCAGCUGAUGU: 0.539
CCACAGAGGCCACAAAAUGUUGCAAGUCAUGAUGGAUGGAAAUAUGUUCUAACAGCAUCUGCCUCUAUUCAAUUUAAUUCUUAUUUCUGUGUUACUCAUGUACAUUGGUC: 0.97
CAUUCGAAUGGGAGAAAAAGCAAAUCGCACAAUGACAUAUUUUGAGUAAUAACCGUAUUUUUCACAGGGUGACAAAUUGGGCCAAUAAAUCUGCCAUCUUUGAACUCAUC: 0.374
AGCAGCGCGUUCUGCGGGGCCCACUGAAGCAGAAGGCUUUUCCCUGGGGAACAGCUCUCGGUGUUGACUGCAUUGUUGCAGUCUCCCAAGUCUGCCCUGUUUUUUUAAUU: 0.331
GCGGUCCGUGCACCAUGCCGCCUGUGACCUGCAUCUGCUCCAAGCAGAGACUUUGGCUUUUUGUUUAAAGAUGCCUUUAUUUUAGAUCCAGGAGGGGUUUGCUCUGAAUU: 0.439
AUCCCCAGGUAGGGGGACGUUGGUUAUAUUCUGUUAGAGGGGGACGGUCGUAUUUUCCUCCCUACCCGCCAAGUCAUCCUUUCUACUGCUUUUGAGGCCCUCCCUCAGCU: 0.376
UCGUUUCUGGGAAGAGAAUCAAUACCUGUUAGAGCCAGAAUGCUCCAAGUCUUUUAGCUUGUUCAUUUUGUAAUGAUUCUAAAAUAAUUCCAAAGAUAUAGCAGCUCAUA: 0.495
GAAGGAAGGAAGAAAAGAAGGAAGGAAGAAGCAUUUGGAAGGAGAACCAGACUGAAAGCUUCAGAGCAAUAAUGUGACUGAAAACUUAUUUAAAGUUAGCUUCUUUCCAC: 0.541
UUGGCAGGAUGGUGACAUUGAACAUGAUUGCUCUCUGUCUCUUUUUUCAGCUUAUGGGUAUUUAUCUUCUAUUAGUAUUUGUAUCUUCAGUUCAUUCCACUUUAGGAAAC: 0.365
AGCUGCCUCUUCAGUGCAAAGAUGAAAAGGAACAUGCUGCUGACGGCCCCCAGCACCAAAGCUUAGCCAAGGCAGAGGCGGAUGCCUCUGGAAAUCUAACCAAAGAGUCC: 0.238
CUUUCAAACAGCGCCUCCACCUGGCCUACUCUGUUAUUUCCACCUGUUUGGGUAGGGCCAUUUAACUUCCAUUAUGCCAAACUUGGGAUGGGAUUUUCGAAGCAGACAAC: 0.325

Set 2 — technique: competition protein-binding microarray; form: double-stranded DNA, one strand shown; matrix: in vitro; concentration: 2 µM; added: Pho4 competitor, 0.05 µM; direction: higher = stronger binding; measurement: fluorescence intensity; shared flanks, not repeated: … GTCTTGATTCGCTTGACGCTGCTG
Target: Centromere-binding protein 1, full length, His-tagged (CBF1, Saccharomyces cerevisiae, UniProt P17106, residues 1-351)
Sequence of UniProt P17106 (whole entry, looked up): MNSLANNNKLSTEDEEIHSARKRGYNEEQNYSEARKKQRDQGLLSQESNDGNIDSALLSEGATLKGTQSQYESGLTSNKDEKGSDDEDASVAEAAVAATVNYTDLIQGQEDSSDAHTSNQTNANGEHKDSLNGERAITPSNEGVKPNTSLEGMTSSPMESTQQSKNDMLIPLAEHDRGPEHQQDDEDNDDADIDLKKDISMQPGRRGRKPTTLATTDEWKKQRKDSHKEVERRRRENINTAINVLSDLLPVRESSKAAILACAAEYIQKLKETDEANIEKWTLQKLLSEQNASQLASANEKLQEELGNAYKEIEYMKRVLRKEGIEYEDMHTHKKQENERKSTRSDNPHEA
Setting: whole 60-bp probe, lowest competitor level
CCAAAGGGTCCCCATCACGTCTGGTCCGGGCTTTCC: 60 a.u.
CATACCCAACCTTGTCACCAGACTTAAGATATTTGT: 101 a.u.
ATTCACTTGTGCGGCCACGTGCGGATGAATAATAAA: 1520 a.u.
GTCAATGCAGTCATCCTCGTGAAATCTGGAATGAAT: 89.7 a.u.
TACGACGGCATTGGGCCCGTGGGTACTCACCGGGTT: 49.6 a.u.
TGCTCCGTTGACATCTTCGTGGGTACTCATATCACT: 51.8 a.u.
ATATGCTTCCTTTGTCACGTGCAAATTCTGACTCCA: 8100 a.u.
GACAGATAGGACAAGCATGTGGTCTTGGCGCCTCTG: 84.8 a.u.
GCCTCCGAAGATTGGGACGTGCCAGCGGAGCAAGTT: 58 a.u.
CTTCTGTAAATTTGCCACGTGGGTGGACGCGCCCCG: 971 a.u.
CTTTCCCGATCTTGCTCCGTGGGTGTAGCACATTTG: 72.6 a.u.
ATGAAAATGAAGAAATGCGTGATGGGAAATTACGGG: 212 a.u.
TCACCGGGTGCCGGCCACGCAATATATAAAACGGTA: 69 a.u.
CAAAGGTGAAATTGCCGCGTGGCCGCTAGATCCTGC: 79.2 a.u.
TGCATTTGCTTATTGAACGTGAAGTGGAATTGGGGC: 96.3 a.u.
CTCTACCAGCACCATCACCTGTGAAATATTGACCAG: 91.7 a.u.

Set 3 — technique: DHFR PCA, deep sequencing; matrix: yeast; added: (+)-ABA 0.032 µM; baseline: wild-type fitted maximum; direction: higher = stronger binding; measurement: relative binding score
Target: ABI1, truncated, D143A, DHFR fusion (Arabidopsis thaliana)
Setting: methotrexate growth selection, single substitutions
Starting sequence: PYL1, truncated, DHFR fusion (Arabidopsis thaliana); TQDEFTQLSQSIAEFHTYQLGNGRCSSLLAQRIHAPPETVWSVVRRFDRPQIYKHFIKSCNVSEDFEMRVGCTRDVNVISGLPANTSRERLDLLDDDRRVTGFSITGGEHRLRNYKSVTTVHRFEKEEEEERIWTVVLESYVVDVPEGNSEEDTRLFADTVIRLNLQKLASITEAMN
N177R: 16.1%
T101Y: 8.24%
R123L: 3.57%
S42L: -2.51%
F103Y: 61.6%
E151G: 5.32%
I162W: 6.08%
S42N: 21.6%
V40Y: -9.78%
C72A: 62%
T120D: 5.84%
R88S: 7.89%
L156C: 13.3%
F47C: -1.65%
I79V: 44.2%
P83L: 2.28%
Q7E: 35.6%

Set 4 — technique: protein binding microarray; form: double-stranded DNA, one strand shown; matrix: in vitro; concentration: not given; baseline: not given; direction: higher = stronger binding; measurement: E-score
Target: Histone acetyltransferase KAT6A, winged helix 1, GST fusion (KAT6A, Homo sapiens, UniProt Q92794, residues 1-85)
Setting: 8-mer, flanks averaged, mean of 2 arrays, mostly near background
Target sequence (chain): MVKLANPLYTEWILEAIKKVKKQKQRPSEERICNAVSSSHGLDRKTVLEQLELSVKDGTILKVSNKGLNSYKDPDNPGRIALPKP
AGTGCTGC: 0.0364
CGACTCCA: -0.0441
AATGACTG: -0.268
GGGGCGCA: 0.239
CCGCTTGA: 0.223
ACACTGCT: -0.151
TAAGTCCA: -0.172
GACAACTC: -0.181
ATGAGGTA: -0.323
TCACCTAA: -0.107
CAGTACGG: 0.239
ACACCTCG: 0.071
AAAGCACG: -0.148
AGGGGTAC: -0.137
AATTTCTA: -0.148
AATACGCA: 0.0661

Mixed results
PhoQ, residues 284 288 289 292 302 303 SCCLKL  fold induction (PhoP, residues 12 14 15 18 19 IQSYL (Escherichia coli, UniProt P23836); Sort-seq, measured: YFP reporter; E. coli; PhoQ-PhoP variant library, added: 10 µM Mg2+; baseline: high Mg2+ state, higher = stronger signaling): 11.2

For quick reference, copied from above (set 4):
ATGAGGTA: -0.323
TCACCTAA: -0.107
CAGTACGG: 0.239
ACACCTCG: 0.071
AAAGCACG: -0.148
AGGGGTAC: -0.137
